Assay results pooled from the literature.
A part holds a random share of what one study measured.
Sequence of UniProt P22455 (whole entry, looked up): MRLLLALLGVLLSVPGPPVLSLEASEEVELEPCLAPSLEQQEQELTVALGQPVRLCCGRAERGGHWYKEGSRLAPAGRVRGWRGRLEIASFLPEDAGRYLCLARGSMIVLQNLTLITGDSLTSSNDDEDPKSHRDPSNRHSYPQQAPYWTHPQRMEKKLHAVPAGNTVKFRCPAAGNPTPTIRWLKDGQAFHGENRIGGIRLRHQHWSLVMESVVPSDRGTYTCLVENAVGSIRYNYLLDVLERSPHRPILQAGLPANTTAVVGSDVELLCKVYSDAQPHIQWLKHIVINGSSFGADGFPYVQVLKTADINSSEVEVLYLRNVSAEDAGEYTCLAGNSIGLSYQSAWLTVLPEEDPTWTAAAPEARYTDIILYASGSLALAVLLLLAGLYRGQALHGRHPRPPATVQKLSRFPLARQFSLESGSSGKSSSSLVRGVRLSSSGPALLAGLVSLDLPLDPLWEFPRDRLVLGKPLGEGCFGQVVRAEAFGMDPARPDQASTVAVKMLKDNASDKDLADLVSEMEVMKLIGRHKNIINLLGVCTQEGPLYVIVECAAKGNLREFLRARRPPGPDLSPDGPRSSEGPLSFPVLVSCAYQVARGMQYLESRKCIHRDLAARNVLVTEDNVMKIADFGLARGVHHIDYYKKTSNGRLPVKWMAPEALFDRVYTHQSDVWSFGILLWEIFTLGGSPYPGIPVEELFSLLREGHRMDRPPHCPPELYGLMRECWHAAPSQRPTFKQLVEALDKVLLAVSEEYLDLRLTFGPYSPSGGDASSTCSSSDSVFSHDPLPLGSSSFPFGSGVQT
Sequence of UniProt P21860 (whole entry, looked up): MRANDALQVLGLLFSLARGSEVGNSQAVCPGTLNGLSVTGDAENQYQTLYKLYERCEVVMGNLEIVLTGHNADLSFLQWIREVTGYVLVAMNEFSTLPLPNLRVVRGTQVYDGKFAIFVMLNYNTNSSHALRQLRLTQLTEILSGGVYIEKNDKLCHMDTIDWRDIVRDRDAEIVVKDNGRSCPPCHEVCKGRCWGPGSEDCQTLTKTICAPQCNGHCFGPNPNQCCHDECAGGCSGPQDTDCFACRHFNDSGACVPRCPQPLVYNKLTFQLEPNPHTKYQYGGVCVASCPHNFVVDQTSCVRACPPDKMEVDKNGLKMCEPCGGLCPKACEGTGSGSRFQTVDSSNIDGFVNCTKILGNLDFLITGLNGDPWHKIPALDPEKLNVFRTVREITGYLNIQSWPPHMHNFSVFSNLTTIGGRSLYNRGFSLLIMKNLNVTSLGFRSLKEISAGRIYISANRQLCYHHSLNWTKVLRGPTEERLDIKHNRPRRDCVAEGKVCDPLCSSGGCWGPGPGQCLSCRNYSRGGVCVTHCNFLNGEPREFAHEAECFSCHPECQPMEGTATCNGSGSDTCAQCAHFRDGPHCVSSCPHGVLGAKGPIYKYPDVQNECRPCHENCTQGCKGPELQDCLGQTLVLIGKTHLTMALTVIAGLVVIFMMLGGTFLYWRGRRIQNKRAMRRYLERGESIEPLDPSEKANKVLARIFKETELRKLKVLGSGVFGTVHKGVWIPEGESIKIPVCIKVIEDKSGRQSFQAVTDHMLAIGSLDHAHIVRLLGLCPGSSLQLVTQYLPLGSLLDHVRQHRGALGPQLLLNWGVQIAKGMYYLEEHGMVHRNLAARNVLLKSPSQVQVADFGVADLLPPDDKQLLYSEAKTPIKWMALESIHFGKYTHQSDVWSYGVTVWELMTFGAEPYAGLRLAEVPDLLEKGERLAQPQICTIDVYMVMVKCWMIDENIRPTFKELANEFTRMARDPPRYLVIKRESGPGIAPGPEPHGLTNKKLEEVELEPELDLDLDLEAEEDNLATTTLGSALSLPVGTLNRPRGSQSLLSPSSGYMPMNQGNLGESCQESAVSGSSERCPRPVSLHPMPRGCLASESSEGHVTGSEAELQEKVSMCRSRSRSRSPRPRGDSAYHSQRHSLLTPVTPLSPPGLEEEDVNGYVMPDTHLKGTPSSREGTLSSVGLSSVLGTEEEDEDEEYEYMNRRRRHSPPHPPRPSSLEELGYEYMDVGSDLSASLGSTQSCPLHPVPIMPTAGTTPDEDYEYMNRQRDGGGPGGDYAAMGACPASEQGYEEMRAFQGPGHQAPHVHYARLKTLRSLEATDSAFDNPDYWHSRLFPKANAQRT
Sequence of UniProt P25098 (whole entry, looked up): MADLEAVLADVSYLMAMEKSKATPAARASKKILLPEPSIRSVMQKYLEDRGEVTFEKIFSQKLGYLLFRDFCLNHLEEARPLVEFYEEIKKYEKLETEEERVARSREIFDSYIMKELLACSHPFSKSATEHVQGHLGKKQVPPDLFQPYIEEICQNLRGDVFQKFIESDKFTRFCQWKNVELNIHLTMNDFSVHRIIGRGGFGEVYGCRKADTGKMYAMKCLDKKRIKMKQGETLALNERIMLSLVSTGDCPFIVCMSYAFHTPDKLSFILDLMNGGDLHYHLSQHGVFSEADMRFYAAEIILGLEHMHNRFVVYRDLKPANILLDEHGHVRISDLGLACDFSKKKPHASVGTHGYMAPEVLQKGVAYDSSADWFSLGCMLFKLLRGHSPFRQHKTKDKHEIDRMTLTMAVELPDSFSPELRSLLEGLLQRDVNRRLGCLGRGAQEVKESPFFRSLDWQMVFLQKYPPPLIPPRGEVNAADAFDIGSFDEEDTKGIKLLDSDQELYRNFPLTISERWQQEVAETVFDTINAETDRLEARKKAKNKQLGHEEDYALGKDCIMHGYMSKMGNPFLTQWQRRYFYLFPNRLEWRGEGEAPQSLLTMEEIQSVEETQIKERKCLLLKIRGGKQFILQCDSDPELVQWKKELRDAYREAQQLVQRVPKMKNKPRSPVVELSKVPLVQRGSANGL
Sequence of UniProt Q9UPE1 (whole entry, looked up): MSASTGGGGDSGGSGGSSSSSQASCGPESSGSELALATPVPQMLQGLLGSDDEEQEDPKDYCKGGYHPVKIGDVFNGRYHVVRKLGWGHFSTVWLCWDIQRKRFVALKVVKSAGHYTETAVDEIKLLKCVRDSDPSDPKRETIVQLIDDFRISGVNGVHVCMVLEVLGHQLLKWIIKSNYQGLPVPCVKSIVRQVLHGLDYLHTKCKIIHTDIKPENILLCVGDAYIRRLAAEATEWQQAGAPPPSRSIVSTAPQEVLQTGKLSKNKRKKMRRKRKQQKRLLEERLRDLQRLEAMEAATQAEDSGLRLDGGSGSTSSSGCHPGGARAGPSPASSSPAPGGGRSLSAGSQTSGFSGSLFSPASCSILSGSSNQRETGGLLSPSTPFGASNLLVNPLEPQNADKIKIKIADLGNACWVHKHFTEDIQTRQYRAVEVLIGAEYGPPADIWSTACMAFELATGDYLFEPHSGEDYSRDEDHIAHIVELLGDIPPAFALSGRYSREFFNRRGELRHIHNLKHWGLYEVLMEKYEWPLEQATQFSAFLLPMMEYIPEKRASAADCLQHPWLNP

Series 1
SMILES: CC#CC(=O)N1CCC[C@H]1c1nc(-c2ccc(C(=O)Nc3ccccn3)cc2)c2c(N)nccn12
Mode: inhibitor
Tested at: 1 µM
The inhibition was 4% (MAP3K14 (Homo sapiens, UniProt Q99558); enzyme activity).
The inhibition was 0% (FGFR4 (Homo sapiens, UniProt P22455); enzyme activity).
The inhibition was 26% (MATK (Homo sapiens, UniProt P42679); enzyme activity).
For INSRR (Homo sapiens, UniProt P14616); enzyme activity: inhibition read 4%.
MAP2K1 (Homo sapiens, UniProt Q02750); enzyme activity — inhibition: 20%.
For RIPK4 (Homo sapiens, UniProt P57078); enzyme activity: inhibition read 3%.
It gave 34% for inhibition (Ribosomal protein S6 kinase alpha-6, N-terminal kinase domain (RPS6KA6, Homo sapiens, UniProt Q9UK32)).
For EPHB3 (Homo sapiens, UniProt P54753); enzyme activity: inhibition read 15%.
It gave 34% for inhibition (ERBB3 (Homo sapiens, UniProt P21860); enzyme activity).
The inhibition was 0% (CHUK (Homo sapiens, UniProt O15111); enzyme activity).
For LIM domain kinase 1 (LIMK1, Homo sapiens, UniProt P53667); enzyme activity: inhibition read 79%.
The inhibition was 0% (PRKG2 (Homo sapiens, UniProt Q13237); enzyme activity).
It gave 0% for inhibition (PI4KB (Homo sapiens, UniProt Q9UBF8); enzyme activity).
It gave 0% for inhibition (SRPK1 (Homo sapiens, UniProt Q96SB4); enzyme activity).
The inhibition was 0% (ACVR2A (Homo sapiens, UniProt P27037); enzyme activity).
For FLT3 (Homo sapiens, UniProt P36888, F691L/ITD); enzyme activity: inhibition read 10%.

Series 2
SMILES: O=C1c2ccccc2-c2nc3nnnn3nc21
Read-out: enzyme activity
Mode: inhibitor
Tested at: 0.5 µM
Baseline: control
SGK1 (Homo sapiens, UniProt O00141) — remaining activity: 67.2%.
For PAK2 (Homo sapiens, UniProt Q13177): remaining activity read 96.2%.
For SRPK3 (Homo sapiens, UniProt Q9UPE1): remaining activity read 89.4%.
The remaining activity was 99% (PRKCE (Homo sapiens, UniProt Q02156)).
FGFR4 (Homo sapiens, UniProt P22455) — remaining activity: 58%.
The remaining activity was 106% (GRK2 (Homo sapiens, UniProt P25098)).
GSK3A (Homo sapiens, UniProt P49840) — remaining activity: 88.7%.
For BMX (Homo sapiens, UniProt P51813): remaining activity read 79%.
MYLK (Homo sapiens, UniProt Q15746) — remaining activity: 94.1%.
It gave 59.3% for remaining activity (PRKCG (Homo sapiens, UniProt P05129)).
It gave 89.8% for remaining activity (NUAK1 (Homo sapiens, UniProt O60285)).
RPS6KA1 (Homo sapiens, UniProt Q15418) — remaining activity: 53.1%.
The remaining activity was 100% (FLT3 (Homo sapiens, UniProt P36888)).
The remaining activity was 11.6% (CSF1R (Homo sapiens, UniProt P07333)).
The remaining activity was 81.9% (EPHA7 (Homo sapiens, UniProt Q15375)).
PIM2 (Homo sapiens, UniProt Q9P1W9) — remaining activity: 92.8%.
RPS6KB1 (Homo sapiens, UniProt P23443) — remaining activity: 85.8%.
It gave 84.8% for remaining activity (CSK (Homo sapiens, UniProt P41240)).
The remaining activity was 86.1% (EPHB2 (Homo sapiens, UniProt P29323)).

Series 3
Cell line: sample D normal colon organoid
Technique: CellTiter-Glo
Tested at: 1 µM
Setting: mean of replicates
Baseline: DMSO
With `C[C@@]1(Cc2ccc(C#N)cc2)C(=O)N(c2cc(Cl)cc(Cl)c2)c2ncc(C(=O)NC3(c4nc(C5CCC5)no4)CC3)n21` the viability was 84.2%.
The viability of `COc1cc(-c2cn(C3CCc4ccccc4N(CC(F)(F)F)C3=O)nn2)ccc1-n1ccc(C)n1` (stereo not shown) is reported as 77.9%.
`CN1CCN(c2cnc3c(C4CCN(C(=O)c5ccc(OC(F)(F)F)cc5N)CC4)ncnc3c2)CC1` has a viability of 97.3%.
For `Cn1cnc2c(F)c(Nc3ccc(Br)cc3Cl)c(C(=O)NOCCO)cc21`, the viability was 92.3%.
`Cc1c(NC(=O)c2cc(C(N)=O)nc3cc(F)ccc23)c(C(F)(F)F)nn1Cc1ccc(C#N)cc1` gave a viability of 26%.
For `C[C@@H](c1cccc(C#N)c1)n1cc(Cl)cc(C(N)=O)c1=N`, the viability was 124%.
For `Cn1nc(C(F)(F)F)cc1-c1cnc(N2CCc3cc(S(=O)(=O)Nc4c(F)cc(Cl)cc4F)cc(N4CCCC4=O)c32)nc1`, the viability was 113%.
The viability of `NS(=O)(=O)c1cc(NC(=O)Cc2ccccc2)ccc1Oc1cccc(Cl)c1` is reported as 96.7%.
With `CO[C@H]1CC[C@H](CNc2ccc(S(=O)(=O)NC(=O)c3ccc(N4CCN(CC5=C(c6ccc(Cl)cc6)CC(C)(C)CC5)CC4)cc3Oc3cnc4[nH]ccc4c3)cc2[N+](=O)[O-])CC1` the viability was 125%.
`CC1=C(C#N)C(c2ccc3c(c2)c(NC(=O)c2ccccc2C)nn3C)C(C#N)=C(C)N1` has a viability of 98.1%.
With `C[C@H](c1ccnc(Nc2nc3ccc(-c4cc(N(C)C)ncn4)cc3[nH]2)c1)N1CCN(C(=O)CC(F)(F)F)CC1` the viability was 87.8%.
`Cn1cncc1[C@@](O)(COc1ccc(C#N)cc1-c1ccc(OC(F)(F)F)cc1)c1ccc(C#N)cc1` gave a viability of 93.8%.
`CCCCN(Cc1ccccc1)C(=O)c1ccc(S(=O)(=O)Nc2ccccc2)cc1` gave a viability of 113%.
For `C[C@H](c1ccc(F)cc1)N(Cc1cccc(C(=O)O)c1)C(=O)c1cnc2ccccc2c1`, the viability was 97.5%.
`CC(=O)N1CCC(c2ccc(C(=O)NC3=NCCN3)cc2C(F)(F)F)CC1` gave a viability of 105%.
For `C[C@H](c1ccc(F)cc1)N(Cc1ccc(Cl)c(C(=O)O)c1)C(=O)c1cnc2ccccc2c1`, the viability was 112%.

Series 4
Target: Calcium/calmodulin-dependent protein kinase type II subunit alpha (CAMK2A, Homo sapiens, UniProt Q9UQM7)
Sequence of UniProt Q9UQM7 (whole entry, looked up): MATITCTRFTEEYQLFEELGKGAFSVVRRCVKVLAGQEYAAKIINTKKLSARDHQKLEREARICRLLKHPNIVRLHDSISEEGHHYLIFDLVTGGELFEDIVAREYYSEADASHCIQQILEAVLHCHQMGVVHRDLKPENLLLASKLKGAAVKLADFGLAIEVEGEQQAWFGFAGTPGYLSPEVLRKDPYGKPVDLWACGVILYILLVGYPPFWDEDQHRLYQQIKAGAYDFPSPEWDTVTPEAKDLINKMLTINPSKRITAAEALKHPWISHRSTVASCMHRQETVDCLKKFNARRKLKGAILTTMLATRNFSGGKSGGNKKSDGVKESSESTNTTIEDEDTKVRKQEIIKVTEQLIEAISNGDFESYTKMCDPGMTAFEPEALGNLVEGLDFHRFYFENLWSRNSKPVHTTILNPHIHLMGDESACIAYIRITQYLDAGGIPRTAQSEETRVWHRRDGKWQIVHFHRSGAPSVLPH
Read-out: enzyme activity
Mode: inhibitor
Tested at: 10 µM
With `OC[C@H]1O[C@@H](Oc2cc3c(O)cc(O)cc3[o+]c2-c2ccc(O)c(O)c2)[C@H](O)[C@@H](O)[C@H]1O` the inhibition was -15%.
For `O=C1Nc2ccc(Cl)cc2[C@@](C#CC2CC2)(C(F)(F)F)O1`, the inhibition was -8%.
`CC(C)NC[C@@H](O)COc1cccc2ccccc12` has an inhibition of 5%.
For `CCCCCC/C=C\CCCCCCCCCCCC(=O)O`, the inhibition was -4%.
The inhibition of `CC(C)c1ccc(C(=O)O)cc1` is reported as -15%.
`CC(=O)c1cccc(O)c1` gave an inhibition of -18%.
`O=C1Cc2cc(O)ccc2N1` has an inhibition of 2%.
With `C=C(C)[C@@H](O)COc1c2ccoc2cc2oc(=O)ccc12` the inhibition was -26%.
The inhibition of `C#C[C@]1(O)CC[C@H]2[C@@H]3CCc4cc(OC5CCCC5)ccc4[C@H]3CC[C@@]21C` is reported as 0%.
For `O=c1ccn([C@H]2C[C@H](O)[C@@H](CO)O2)c(=O)[nH]1`, the inhibition was 46%.
With `Cn1cnc2c(ncn2[C@@H]2O[C@H](CO)[C@@H](O)[C@H]2O)c1=O` the inhibition was -3%.
With `COC(=O)C1=CO[C@@H](O[C@@H]2O[C@H](CO)[C@@H](O)[C@H](O)[C@H]2O)[C@H]2[C@@H]1[C@H](O)C[C@]2(C)O` the inhibition was -15%.
For `CCN(CC)CCOC(=O)c1ccc(N)cc1Cl`, the inhibition was 8%.
`CCOCC(O)COc1ccc(NC(=O)CC[S+](C)C)cc1` (stereo not shown) has an inhibition of -5%.
For `CCCC(=O)O[C@]1(C(=O)COC(=O)CC)CC[C@H]2[C@@H]3CCC4=CC(=O)CC[C@]4(C)[C@H]3[C@@H](O)C[C@@]21C`, the inhibition was 0%.
For `O=C(O)CCCCCCC(=O)O`, the inhibition was -21%.

For quick reference, copied from above (series 2):
GSK3A (Homo sapiens, UniProt P49840) — remaining activity: 88.7%.
For BMX (Homo sapiens, UniProt P51813): remaining activity read 79%.
MYLK (Homo sapiens, UniProt Q15746) — remaining activity: 94.1%.
It gave 59.3% for remaining activity (PRKCG (Homo sapiens, UniProt P05129)).
It gave 89.8% for remaining activity (NUAK1 (Homo sapiens, UniProt O60285)).
RPS6KA1 (Homo sapiens, UniProt Q15418) — remaining activity: 53.1%.
The remaining activity was 100% (FLT3 (Homo sapiens, UniProt P36888)).
The remaining activity was 11.6% (CSF1R (Homo sapiens, UniProt P07333)).
The remaining activity was 81.9% (EPHA7 (Homo sapiens, UniProt Q15375)).
